Measured values from different studies.
Every numbered part comes from another study and shows a few of its results, in no order. Substitutions count along the parent as printed.

Study 1 — target: CCNE1, cyclin fold, Cln2 fusion (human); technique: yeast growth competition, sequencing; medium: yeast; setting: strong parent motif; reference: not given; reading: higher = stronger binding; endpoint: normalised enrichment score
Parent: CDKN1B docking peptide (human); PSACRNLFGPVDH
PSACPNLFGPVDH [R5P]: -0.176
PSACRNLFGPVDN [H13N]: 2.99
PSACRNLRGPVDH [F8R]: 0.491
PKACRNLFGPVDH [S2K]: 3
PMACRNLFGPVDH [S2M]: 1.83

Study 2 — technique: universal PBM; molecule type: double-stranded DNA, one strand shown; medium: in vitro; tested at: not given; reading: higher = stronger binding; endpoint: E-score
Target: Sal-like protein 4, full length isoform B (SALL4, Homo sapiens, UniProt Q9UJQ4-2, residues 1-616)
Setting: 8-mer, flanks averaged, mean of replicates
Construct (chain): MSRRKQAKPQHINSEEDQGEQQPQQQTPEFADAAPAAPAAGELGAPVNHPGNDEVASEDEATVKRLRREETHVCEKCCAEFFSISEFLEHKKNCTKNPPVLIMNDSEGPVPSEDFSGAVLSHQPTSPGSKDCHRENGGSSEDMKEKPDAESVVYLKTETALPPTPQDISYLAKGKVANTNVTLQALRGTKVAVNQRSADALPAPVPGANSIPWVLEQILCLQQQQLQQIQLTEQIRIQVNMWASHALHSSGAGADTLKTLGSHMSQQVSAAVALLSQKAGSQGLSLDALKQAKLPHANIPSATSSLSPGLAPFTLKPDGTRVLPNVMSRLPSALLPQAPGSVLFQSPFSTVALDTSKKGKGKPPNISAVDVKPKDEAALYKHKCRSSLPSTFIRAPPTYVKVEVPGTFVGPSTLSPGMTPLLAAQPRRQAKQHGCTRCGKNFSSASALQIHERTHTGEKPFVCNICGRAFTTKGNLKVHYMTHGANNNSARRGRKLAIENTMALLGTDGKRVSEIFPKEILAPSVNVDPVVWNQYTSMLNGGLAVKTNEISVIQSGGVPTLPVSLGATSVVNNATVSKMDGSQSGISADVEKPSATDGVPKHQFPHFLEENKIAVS
GCTTCAAA: 0.145
CACTGCCA: -0.0403
CTGTCGAA: -0.071
CTTACGGA: -0.161
CAGAGCCG: -0.236
GTAAAGTA: 0.284

Study 3 — technique: RNA Bind-n-Seq; molecule type: RNA; medium: in vitro; tested at: not given; reference: input RNA pool; reading: higher = stronger binding; endpoint: bound/input enrichment
Target: RING finger protein unkempt homolog, zinc fingers 1-6, GST-SBP tag (UNK, Homo sapiens, UniProt Q9C0B0, residues 30-357)
Setting: RNA with constant flanks, human and mouse sites, ends assumed
All sequences stand within: GGGAGUUCUACAGUCCGACGAUC … CAACAGAGGAUUGAGCAUCA
Target sequence (chain): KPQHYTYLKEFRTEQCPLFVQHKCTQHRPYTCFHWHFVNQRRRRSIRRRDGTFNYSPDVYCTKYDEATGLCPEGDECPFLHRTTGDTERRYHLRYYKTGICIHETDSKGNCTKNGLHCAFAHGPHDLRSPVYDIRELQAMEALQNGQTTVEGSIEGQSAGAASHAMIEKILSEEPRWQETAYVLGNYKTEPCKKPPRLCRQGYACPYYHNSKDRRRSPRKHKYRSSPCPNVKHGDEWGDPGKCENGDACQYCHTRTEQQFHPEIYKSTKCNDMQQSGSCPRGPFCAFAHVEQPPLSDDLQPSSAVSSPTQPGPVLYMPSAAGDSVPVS
CUUCCAUAAGGAAGGCUGGUUAUGGAUAUUCAUAAGGUUAUUUCAAAGUUAAUAAAGACAAAGUGGCAACUGUAGAAAGUGUUGCCUCCAAUCUUGGUCCGUAUUUCCAAAGCUUGUAAA: 0.211 ratio
CAGGCCACGGAGAGCGAGGCCGGUGACAUGGACCUGAGUGGACUGCCAGAGACGGCGGUUGACUCUGAGGAUGACGAUGAUGAGGAAGACAUCGAGAGAGCAUCAGACCCUCUGAUGAGC: 0.0557 ratio
GACAACAAAAUUAUAGAAUGCAAAUUUGAGAACAACAGCUGGGUCUUCAUGAGACAGAGAACAGACAAAAGUUUUCCUAAUGCCUACAACACUGCCAUGGCUGUGUGUAACAGCAUCUCA: 3.55 ratio
CAGCUGCUUACACAAGAUGUAGAAAAAUUUUGUAACAGUGUAGUCGAUCUGUAUUCAAAUCUUAGUAAGCCAUUUUUAGACAUAGUUUUGUAUAUCUUUAAGUUAACGAGUGCAAUUGGA: 19.9 ratio
AAGCAACUUAUGGAAACAACUACAGAAUUUACAAAAAAGCUUCGGUGUUUACUUGCCUGGCAAUAGCAUUGGGAUUUUAUAGAUUCUGGAAGUAGUAUUAAUGCUCAUCCUGCUGUGGCU: 1.5 ratio
GUAGAAUUUUGUCAUCCUGAAGACCAACAACUUCUAAGAGACAGCUUUCAGCAGGUGGUGAAAUUAAAAGGUCAGGUGCUGUCCGUCAUGUUCCGAUUCCGAUCUAAGACCCGAGAAUGG: 0.128 ratio

Mixed results
PhoQ, residues 284 288 289 292 302 303 SMYGEC
fold induction (PhoP, residues 12 14 15 18 19 NQFFI (Escherichia coli, UniProt P23836); Sort-seq, item: YFP reporter; E. coli; PhoQ-PhoP variant library, with: 10 µM Mg2+; reference: high Mg2+ state, higher = stronger signaling): 3.1

Excerpt of the above (study 2):
CTTACGGA: -0.161
CAGAGCCG: -0.236
GTAAAGTA: 0.284
